Assay results from different studies.
Compare with care: the assays were run in different laboratories. ± marks the error that the study gave.

Compound	tested on	assay	test system	setting	scale	endpoint	result
N=C(N)NCCC[C@@H]1NC(=O)[C@H](CCCCNC(=O)CNC(=O)CNC(=O)CNC(=O)CC[C@H](NC(=O)CCOCCOCCOCCOCCNC(=O)CC[C@H](NC(=O)CN2CCN(CC(=O)O)CCN(CC(=O)O)CCN(CC(=O)O)CC2)C(=O)NCCOCCOCCOCCOCCC(=O)N[C@@H](CCC(=O)NCC(=O)NCC(=O)NCC(=O)NCCCC[C@@H]2NC(=O)[C@@H](Cc3ccccc3)NC(=O)[C@H](CC(=O)O)NC(=O)CNC(=O)[C@H](CCCNC(=N)N)NC2=O)C(=O)NCC(=O)NCC(=O)NCC(=O)NCCCC[C@@H]2NC(=O)[C@@H](Cc3ccccc3)NC(=O)[C@H](CC(=O)O)NC(=O)CNC(=O)[C@H](CCCNC(=N)N)NC2=O)C(=O)NCC(=O)NCC(=O)NCC(=O)NCCCC[C@@H]2NC(=O)[C@@H](Cc3ccccc3)NC(=O)[C@H](CC(=O)O)NC(=O)CNC(=O)[C@H](CCCNC(=N)N)NC2=O)NC(=O)[C@@H](Cc2ccccc2)NC(=O)[C@H](CC(=O)O)NC(=O)CNC1=O [indium-111 labelled]			female athymic nude mice, lungs	intravenous, 3 µCi, 0.5 h, U-87 MG glioma xenograft		tissue uptake	4.26 ± 0.78 %ID/g
CCCC[C@H](NC(=O)CCCCCCCNC(=O)c1ccc(NN)nc1)C(=O)N[C@H]1CC(=O)NCCCC[C@@H](C(N)=O)NC(=O)[C@H](Cc2c[nH]c3ccccc23)NC(=O)[C@H](CCCNC(=N)N)NC(=O)[C@@H](Cc2ccccc2)NC(=O)[C@H](Cc2c[nH]cn2)NC1=O [technetium-99m labelled]			C57 mouse, B16/F1 melanoma, skin	intravenous, 24 h		uptake	0.15 ± 0.05 %ID/g
COc1cc(OC)cc(C2=C3c4ccccc4C(c4ccc(NC(=S)NCCOCCOCCOCCC(=O)N[C@@H](CC(C)C)C(=O)N[C@@H](C)C(=O)N[C@@H](CCCNC(=N)N)C(=O)N[C@@H](CC(C)C)C(=O)N[C@@H](CC(C)C)C(=O)N[C@H](C(N)=O)[C@@H](C)O)cc4)=[N+]3[B-](F)(F)n3c2c2ccccc2c3-c2ccc(NC(=S)NCCNC(=O)CCCC[C@@H]3SC[C@@H]4NC(=O)N[C@@H]43)cc2)c1			DMSO			emission maximum	689 nm
N=C(N)NCCC[C@@H]1NC(=O)[C@H](CCCCNC(=O)CC[C@H](NC(=O)CCOCCOCCOCCOCCNC(=O)CN2CCN(CC(=O)O)CCN(CC(=O)O)CCN(CC(=O)O)CC2)C(=O)NCCCC[C@@H]2NC(=O)[C@@H](Cc3ccccc3)NC(=O)[C@H](CC(=O)O)NC(=O)CNC(=O)[C@H](CCCNC(=N)N)NC2=O)NC(=O)[C@@H](Cc2ccccc2)NC(=O)[C@H](CC(=O)O)NC(=O)CNC1=O [indium-111 labelled]			female athymic nude mice, blood	intravenous, 3 µCi, 24 h, U-87 MG glioma xenograft		tissue uptake	0.07 ± 0.02 %ID/g
CSCC[C@H](NC(=O)[C@H](CC(C)C)NC(=O)[C@H](Cc1c[nH]cn1)NC(=O)CNC(=O)[C@@H](NC(=O)[C@H](C)NC(=O)[C@H](Cc1c[nH]c2ccccc12)NC(=O)[C@H](CCC(N)=O)NC(=O)CCCCCNC(=O)CNC(=O)CNC(=O)CNC(=O)CSC(C)=O)C(C)C)C(N)=O [technetium-99m labelled]			nude mouse, PC-3 xenograft, stomach	30 min		tissue uptake	0.94 ± 0.27 %ID/g
CC(C)C[C@H](NC(=O)[C@@H]1CCCN1C(=O)[C@H](CCCCN)NC(=O)[C@@H](N)CO)C(=O)N1CCC[C@H]1C(=O)N[C@@H](CCC(=O)O)C(=O)N[C@H](C(=O)N[C@H](C(=O)N[C@@H](CC(=O)O)C(=O)N[C@@H](CCC(=O)O)C(=O)N[C@@H](Cc1ccc(O)cc1)C(=O)N[C@@H](Cc1cn(CCOCCOCCOCCNC(=O)CCc2ccc(O)c(CN(CCN(CC(=O)O)Cc3cc(CCC(=O)NCCCC[C@H](NC(=O)N[C@@H](CCC(=O)O)C(=O)O)C(=O)O)ccc3O)CC(=O)O)c2)nn1)C(=O)O)[C@@H](C)O)C(C)C [gallium-68 labelled]			NMRI nu/nu mice, LNCaP tumour, skin	10 MBq, high molar activity		standardized uptake value	0.13 g/g
CN[C@](C)(C[18F])C(=O)O	A549 tumour model		host not given, blood	15 min, tumour-bearing		tracer uptake	2.6 %ID/g
N=C(N)NCCC[C@@H]1NC(=O)[C@H](CCCCNC(=O)CC[C@H](NC(=O)CCOCCOCCOCCOCCNC(=O)CC[C@H](NC(=O)CN2CCN(CC(=O)O)CCN(CC(=O)O)CCN(CC(=O)O)CC2)C(=O)NCCOCCOCCOCCOCCC(=O)N[C@@H](CCC(=O)NCCCC[C@@H]2NC(=O)[C@@H](Cc3ccccc3)NC(=O)[C@H](CC(=O)O)NC(=O)CNC(=O)[C@H](CCCNC(=N)N)NC2=O)C(=O)NCCCC[C@@H]2NC(=O)[C@@H](Cc3ccccc3)NC(=O)[C@H](CC(=O)O)NC(=O)CNC(=O)[C@H](CCCNC(=N)N)NC2=O)C(=O)NCCCC[C@@H]2NC(=O)[C@@H](Cc3ccccc3)NC(=O)[C@H](CC(=O)O)NC(=O)CNC(=O)[C@H](CCCNC(=N)N)NC2=O)NC(=O)[C@@H](Cc2ccccc2)NC(=O)[C@H](CC(=O)O)NC(=O)CNC1=O [indium-111 labelled]			athymic nude mice, female, U-87 MG glioma xenograft, tumour and kidney	intravenous, 4 h	relative to: tumour over kidney	tumour to tissue ratio	1.49 ± 0.93
CCCCCCCCCCCCCCCCCC(=O)OC[C@H](NC(=O)[C@H](Cc1c[nH]c2ccccc12)NC(=O)[C@H](Cc1c[nH]cn1)NC(=O)[C@@H]1CCC(=O)N1)C(=O)N[C@@H](Cc1ccc(O)cc1)C(=O)N[C@H](CC(C)C)C(=O)N[C@@H](CC(C)C)C(=O)N[C@@H](CCCNC(=N)N)C(=O)N1CCC[C@H]1C(=O)NCC		HPLC	human plasma	1 mg/mL, 5 weeks, 37 °C		conversion to leucine	80.3%
CCCC[C@H](NC(=O)CNC(=O)CNC(=O)c1ccc(NN)nc1)C(=O)N[C@H]1CC(=O)NCCCC[C@@H](C(N)=O)NC(=O)[C@H](Cc2c[nH]c3ccccc23)NC(=O)[C@H](CCCNC(=N)N)NC(=O)[C@@H](Cc2ccccc2)NC(=O)[C@H](Cc2c[nH]cn2)NC1=O [technetium-99m labelled]			C57 mouse, B16/F1 melanoma, muscle	2 h, added: L-lysine 12 mg		uptake	0.06 ± 0.05 %ID/g
CC(C)C[C@@H]1NC(=O)[C@H](C(C)C)NC(=O)[C@H](CO)NC(=O)CNC(=O)CNC(=O)[C@H](CCCNC(=N)N)NC(=O)[C@@H]2CCCN2C(=O)[C@@H](NC(=O)CC[C@H](NC(=O)c2ccc(N(C)Cc3cnc4nc(N)nc(N)c4n3)cc2)C(=O)O)C(C)(C)SSC[C@@H](C(=O)O)NC(=O)CNC(=O)[C@H]([C@@H](C)O)NC(=O)[C@H](C(C)C)NC1=O		HPLC	Acetate buffer	pH 5.0, 70 °C		degradation rate constant	0.0013 h⁻¹
